Results of several laboratories.
Lines come from different studies, so protocols differ. ± gives the spread as reported.
FGFR3 isoform IIIc: FGFR3 isoform IIIc (unknown, UniProt Q61851)
Sequence of UniProt Q61851 (whole entry, looked up): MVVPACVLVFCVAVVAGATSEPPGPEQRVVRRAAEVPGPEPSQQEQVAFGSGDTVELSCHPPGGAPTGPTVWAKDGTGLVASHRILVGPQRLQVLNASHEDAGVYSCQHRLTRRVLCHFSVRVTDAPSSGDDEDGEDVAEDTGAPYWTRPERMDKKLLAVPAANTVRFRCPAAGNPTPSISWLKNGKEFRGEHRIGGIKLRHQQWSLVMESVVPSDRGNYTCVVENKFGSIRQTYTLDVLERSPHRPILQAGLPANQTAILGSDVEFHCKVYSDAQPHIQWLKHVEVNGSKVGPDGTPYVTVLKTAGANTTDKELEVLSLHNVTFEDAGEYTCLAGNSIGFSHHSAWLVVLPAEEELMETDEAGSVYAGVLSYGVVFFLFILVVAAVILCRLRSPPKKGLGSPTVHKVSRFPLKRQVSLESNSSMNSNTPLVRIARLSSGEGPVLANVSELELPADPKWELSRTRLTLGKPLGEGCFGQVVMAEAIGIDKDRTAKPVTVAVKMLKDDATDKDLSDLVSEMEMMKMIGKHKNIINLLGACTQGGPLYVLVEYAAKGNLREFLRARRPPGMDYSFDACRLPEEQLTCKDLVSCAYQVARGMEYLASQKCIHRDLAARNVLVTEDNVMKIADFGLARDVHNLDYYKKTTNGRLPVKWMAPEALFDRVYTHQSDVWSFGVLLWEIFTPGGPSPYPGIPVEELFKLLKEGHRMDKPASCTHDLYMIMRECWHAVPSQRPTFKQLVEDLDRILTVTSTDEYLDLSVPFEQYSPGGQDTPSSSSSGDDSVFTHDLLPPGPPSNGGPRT
Rbpj: Rbpj 53-474 (Mus musculus, UniProt P31266)
Sequence of UniProt P31266 (whole entry, looked up): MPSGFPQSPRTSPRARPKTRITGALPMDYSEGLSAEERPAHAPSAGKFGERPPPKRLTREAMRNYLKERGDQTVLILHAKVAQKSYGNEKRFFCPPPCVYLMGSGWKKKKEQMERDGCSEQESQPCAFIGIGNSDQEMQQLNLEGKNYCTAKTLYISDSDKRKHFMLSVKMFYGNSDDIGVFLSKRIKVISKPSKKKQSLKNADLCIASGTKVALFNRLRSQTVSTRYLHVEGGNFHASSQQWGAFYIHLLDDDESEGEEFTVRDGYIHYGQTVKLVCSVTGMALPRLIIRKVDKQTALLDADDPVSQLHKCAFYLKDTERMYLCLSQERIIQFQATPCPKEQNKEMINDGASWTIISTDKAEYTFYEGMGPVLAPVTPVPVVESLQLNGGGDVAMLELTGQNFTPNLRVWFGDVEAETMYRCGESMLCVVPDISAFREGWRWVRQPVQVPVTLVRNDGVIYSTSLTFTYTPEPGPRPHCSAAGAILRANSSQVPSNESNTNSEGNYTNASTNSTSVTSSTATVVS
B1: TUB1/TUB2 heterodimer D118A (Saccharomyces cerevisiae); chain 1 MREVISINVGQAGCQIGNACWELYSLEHGIKPDGHLEDGLSKPKGGEEGFSTFFHETGYGKFVPRAIYVDLEPNVIDEVRNGPYKDLFHPEQLISGKEDAANNYARGHYTVGREILGAVLDRIRKLADQCDGLQGFLFTHSLGGGTGSGLGSLLLEELSAEYGKKSKLEFAVYPAPQVSTSVVEPYNTVLTTHTTLEHADCTFMVDNEAIYDMCKRNLDIPRPSFANLNNLIAQVVSSVTASLRFDGSLNVDLNEFQTNLVPYPRIHFPLVSYSPVLSKSKAFHESNSVSEITNACFEPGNQMVKCDPRDGKYMATCLLYRGDVVTRDVQRAVEQVKNKKTVQLVDWCPTGFKIGICYEPPTATPNSQLATVDRAVCMLSNTTSIAEAWKRIDRKFDLMYAKRAFVHWYVGEGMEEGEFTEAREDLAALERDYIEVGADSYAEEEEF; chain 2 MREIIHISTGQCGNQIGAAFWETICGEHGLDFNGTYHGHDDIQKERLNVYFNEASSGKWVPRSINVDLEPGTIDAVRNSAIGNLFRPDNYIFGQSSAGNVWAKGHYTEGAELVDSVMDVIRREAEGCDSLQGFQITHSLGGGTGSGMGTLLISKIREEFPDRMMATFSVLPSPKTSDTVVEPYNATLSVHQLVEHSDETFCIDNEALYDICQRTLKLNQPSYGDLNNLVSSVMSGVTTSLRYPGQLNSDLRKLAVNLVPFPRLHFFMVGYAPLTAIGSQSFRSLTVPELTQQMFDAKNMMAAADPRNGRYLTVAAFFRGKVSVKEVEDEMHKVQSKNSDYFVEWIPNNVQTAVCSVAPQGLDMAATFIANSTSIQELFKRVGDQFSAMFKRKAFLHWYTSEGMDELEFSEAESNMNDLVSEYQQYQEATVEDDEEVDENGDFGAPQNQDEPITENFE
B2: GCN4/KAR3/VIK1 353-729/341-647 C391L/C469A/C517A/C566V/C655V/E382C/C377V/C436A/C536A/C596A/C640A/K372C (Saccharomyces cerevisiae); M4M 10-Å cross-link; chain 1 SVKELEDKVEELLSKNYHLENEVARLKKLVKDTELGMKELNEILIKEETVRRTLHNELQCLRGNIRVYLRIRPALKNLENSDTSLINVNEFDDNSGVQSMEVTKIQNTAQVHEFKFDKIFDQQDTNVDVFKEVGQLVQSSLDGYNVAIFAYGQTGSGKTFTMLNPGDGIIPSTISHIFNWINKLKTKGWDYKVNAEFIEIYNENIVDLLRSDNNNKEDTSIGLKHEIRHDQETKTTTITNVTSVKLESEEMVEIILKKANKLRSTASTASNEHSSRSHSIFIIHLSGSNAKTGAHSYGTLNLVDLAGSERINVSQVVGDRLRETQNINKSLSVLGDVIHALGQPDSTKRHIPFRNSKLTYLLQYSLTGDSKTLMFVNISPSSSHINETLNSLRFASKVNSTRLVSRK; chain 2 SVKELEDKVEELLSKNYHLENEVARLKKLVSKQEKFYNDTYNTVEKELLRSRRLENSIIEQCGTMRVYAYVMEQNLPENLLFDYENGVITQGLSEHVYKFNRVIPHLKVSEDKFFTQEYSVYHDMALNQKKNFNLISLSTTPHGSLRESLIKFLAEKDTIYQKQYVITLQFVFLSDDEFSQDMLLDYSHNDKDSIKLKFEKHSISLDSKLVIIENGLEDLPLNFSADEHPNLPHSGMGIIKVQFFPRDSKSDGNNDPVPVDFYFIELNNLKSIEQFDKSIFKKESAETPIALVLKKLISDTKSFFLLNLNDSKNVNKLLTISEEVQTQLAKRKKKLT
B3: TIMP3 24-144 (Homo sapiens, UniProt P35625); sequence looked up; chain CTCSPSHPQDAFCNSDIVIRAKVVGKKLVKEGPFGTLVYTIKQMKMYRGFTKMPHVQYIHTEASESLCGLKLEVNKYQYLLTGRVYDGKMYTGLCNFVERWDQLTLSQRKGLNYRYHLGCN
B4: VCL 879-1066 (Homo sapiens, UniProt P18206-2); sequence looked up; chain EEKDEEFPEQKAGEVINQPMMMAARQLHDEARKWSSKGNDIIAAAKRMALLMAEMSRLVRGGSGTKRALIQCAKDIAKASDEVTRLAKEVAKQCTDKRIRTNLLQVCERIPTISTQLKILSTVKATMLGRTNISDEESEQATEMLVHNAQNLMQSVKETVREAEAASIKIRTDAGFTLRWVRKTPWYQ
B5: mel-26 (Caenorhabditis elegans, UniProt Q94420); sequence looked up; chain MEPRIDGGVFIGGIGNSGNEMCSNGVPALGVSSQTEIKVEKVQHTWTVKNFSHCYQEYLENFVYLQRGDEQLTWSIKIYPKGNGENNKDFVFLCLNRVINNNVKAGKIGFKSQFKLRTAENKDIEMRIHPNPSHSDYVSYIKRDVLFPQIMPRDMIIVNVEIDVAVETITTTNEPIQFEPTNSEQQLIEDYQRLFSQELLCDFAINVNGKIIRAHKAVLAARSPVFNAMLTHQDTDEAKSSMMYINDMDYDVIYEMVYYIYCGRCNKDITDMATALLIAADKYRLEELKSHCEKYLVENINIENACSLLIIGDLYSAPKLRKRAVTYILARPKNVTGTPGWEDILKGHPNLITDIFSQIDRQSSTGATSSVSNLPGVPMDIPGITGNIVPPPSGL
B6: GABBR2 42-466 (Homo sapiens, UniProt O75899); sequence looked up; chain WARGAPRPPPSSPPLSIMGLMPLTKEVAKGSIGRGVLPAVELAIEQIRNESLLRPYFLDLRLYDTECDNAKGLKAFYDAIKYGPNHLMVFGGVCPSVTSIIAESLQGWNLVQLSFAATTPVLADKKKYPYFFRTVPSDNAVNPAILKLLKHYQWKRVGTLTQDVQRFSEVRNDLTGVLYGEDIEISDTESFSNDPCTSVKKLKGNDVRIILGQFDQNMAAKVFCCAYEENMYGSKYQWIIPGWYEPSWWEQVHTEANSSRCLRKNLLAAMEGYIGVDFEPLSSKQIKTISGKTPQQYEREYNNKRSGVGPSKFHGYAYDGIWVIAKTLQRAMETLHASSRHQRIQDFNYTDHTLGRIILNAMNETNFFGVTGQVVFRNGERMGTIKFTQFQDSREVKVGEYNAVADTLEIINDTIRFQGSEPPKD
B7: Cdkn1b (Mus musculus, UniProt P46414); chain MSNVRVSNGSPSLERMDARQAEHPKPSACRNLFGPVNHEELTRDLEKHCRDMEEASQRKWNFDFQNHKPLEGRYEWQEVERGSLPEFYYRPPRPPKSACKVLAQESQDVSGSRQAVPLIGSQANSEDRHLVDQMPDSSDNPAGLAEQCPGMRKRPAAEDSSSQNKRANRTEENVSDGSPNAGTVEQTPKKPGLRRQT
Sequence of UniProt P46873 (whole entry, looked up): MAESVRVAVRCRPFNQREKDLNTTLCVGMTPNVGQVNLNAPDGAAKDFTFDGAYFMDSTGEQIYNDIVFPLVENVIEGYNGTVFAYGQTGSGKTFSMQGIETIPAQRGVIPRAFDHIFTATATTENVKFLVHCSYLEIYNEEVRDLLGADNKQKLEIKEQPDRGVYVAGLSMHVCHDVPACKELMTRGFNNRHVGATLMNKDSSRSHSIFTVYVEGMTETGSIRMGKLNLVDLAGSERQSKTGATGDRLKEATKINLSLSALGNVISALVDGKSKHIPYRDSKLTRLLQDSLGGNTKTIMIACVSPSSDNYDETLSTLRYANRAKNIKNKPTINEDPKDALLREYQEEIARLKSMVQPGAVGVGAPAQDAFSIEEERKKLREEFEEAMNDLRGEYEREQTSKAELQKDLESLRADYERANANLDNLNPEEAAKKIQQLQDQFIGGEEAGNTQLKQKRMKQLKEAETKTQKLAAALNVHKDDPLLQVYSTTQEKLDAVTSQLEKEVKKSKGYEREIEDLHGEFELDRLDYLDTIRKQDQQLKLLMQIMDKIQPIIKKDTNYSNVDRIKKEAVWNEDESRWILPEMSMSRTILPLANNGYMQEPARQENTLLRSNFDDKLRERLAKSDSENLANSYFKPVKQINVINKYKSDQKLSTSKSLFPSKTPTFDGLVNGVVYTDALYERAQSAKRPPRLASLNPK
Sequence of UniProt P55075 (whole entry, looked up): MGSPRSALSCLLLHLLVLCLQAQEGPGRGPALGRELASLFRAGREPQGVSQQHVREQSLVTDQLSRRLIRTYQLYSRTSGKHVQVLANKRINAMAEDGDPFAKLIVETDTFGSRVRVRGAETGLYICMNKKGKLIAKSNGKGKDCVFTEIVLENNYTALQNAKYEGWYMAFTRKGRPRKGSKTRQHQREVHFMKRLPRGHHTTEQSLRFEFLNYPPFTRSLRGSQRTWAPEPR
Sequence of UniProt Q61457 (whole entry, looked up): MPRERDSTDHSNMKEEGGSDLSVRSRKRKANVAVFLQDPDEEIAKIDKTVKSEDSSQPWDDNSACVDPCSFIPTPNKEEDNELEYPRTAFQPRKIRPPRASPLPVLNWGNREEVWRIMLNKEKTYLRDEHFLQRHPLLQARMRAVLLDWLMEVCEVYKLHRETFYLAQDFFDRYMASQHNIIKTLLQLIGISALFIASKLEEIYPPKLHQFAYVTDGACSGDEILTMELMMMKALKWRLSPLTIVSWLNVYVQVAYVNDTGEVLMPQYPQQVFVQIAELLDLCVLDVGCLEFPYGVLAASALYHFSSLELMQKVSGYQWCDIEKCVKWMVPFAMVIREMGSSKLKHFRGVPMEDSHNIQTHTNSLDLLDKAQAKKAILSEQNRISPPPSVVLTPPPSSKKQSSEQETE
Sequence of UniProt Q8IY67 (whole entry, unmodified, looked up): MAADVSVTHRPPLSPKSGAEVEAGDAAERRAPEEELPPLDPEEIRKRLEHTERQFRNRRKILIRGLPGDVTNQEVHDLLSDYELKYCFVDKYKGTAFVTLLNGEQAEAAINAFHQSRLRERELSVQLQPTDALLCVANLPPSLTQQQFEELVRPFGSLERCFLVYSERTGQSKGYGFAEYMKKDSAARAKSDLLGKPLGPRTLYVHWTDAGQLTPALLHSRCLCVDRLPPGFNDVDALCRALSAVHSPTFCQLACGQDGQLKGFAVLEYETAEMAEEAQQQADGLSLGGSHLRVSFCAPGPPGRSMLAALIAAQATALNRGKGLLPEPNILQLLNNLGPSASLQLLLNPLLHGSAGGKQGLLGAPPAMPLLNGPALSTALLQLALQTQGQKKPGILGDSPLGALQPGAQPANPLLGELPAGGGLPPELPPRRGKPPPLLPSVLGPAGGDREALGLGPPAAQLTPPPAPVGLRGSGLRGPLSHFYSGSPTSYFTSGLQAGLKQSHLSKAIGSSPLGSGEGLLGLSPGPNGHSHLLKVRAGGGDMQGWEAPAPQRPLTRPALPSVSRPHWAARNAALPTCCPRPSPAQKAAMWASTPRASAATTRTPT
Sequence of UniProt P53086 (whole entry, looked up): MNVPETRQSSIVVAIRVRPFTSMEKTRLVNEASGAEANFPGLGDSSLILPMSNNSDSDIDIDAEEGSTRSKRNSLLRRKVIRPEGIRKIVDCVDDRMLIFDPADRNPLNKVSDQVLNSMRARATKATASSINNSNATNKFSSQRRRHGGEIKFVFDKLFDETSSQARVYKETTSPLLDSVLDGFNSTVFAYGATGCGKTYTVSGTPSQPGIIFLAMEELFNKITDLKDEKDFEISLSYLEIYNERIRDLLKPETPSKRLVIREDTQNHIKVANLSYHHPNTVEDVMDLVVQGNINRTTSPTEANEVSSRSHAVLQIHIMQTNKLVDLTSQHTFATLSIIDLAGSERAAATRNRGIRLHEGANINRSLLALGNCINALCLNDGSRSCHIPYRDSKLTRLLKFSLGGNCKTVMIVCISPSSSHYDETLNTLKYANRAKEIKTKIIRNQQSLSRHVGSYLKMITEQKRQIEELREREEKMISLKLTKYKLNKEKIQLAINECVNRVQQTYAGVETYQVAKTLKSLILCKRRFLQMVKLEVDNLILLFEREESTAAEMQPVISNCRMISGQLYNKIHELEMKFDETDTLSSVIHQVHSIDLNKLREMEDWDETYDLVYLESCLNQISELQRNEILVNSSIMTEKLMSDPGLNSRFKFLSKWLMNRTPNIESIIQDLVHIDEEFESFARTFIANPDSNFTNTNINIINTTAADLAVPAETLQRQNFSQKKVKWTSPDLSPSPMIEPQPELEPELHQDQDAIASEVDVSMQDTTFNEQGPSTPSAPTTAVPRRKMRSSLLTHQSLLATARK
Sequence of UniProt P05230 (whole entry, looked up): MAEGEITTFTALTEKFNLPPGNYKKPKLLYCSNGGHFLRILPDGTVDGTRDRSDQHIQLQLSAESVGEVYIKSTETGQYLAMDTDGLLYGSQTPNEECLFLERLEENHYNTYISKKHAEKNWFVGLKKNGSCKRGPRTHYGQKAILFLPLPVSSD
Sequence of UniProt P0A6A8 (whole entry, looked up): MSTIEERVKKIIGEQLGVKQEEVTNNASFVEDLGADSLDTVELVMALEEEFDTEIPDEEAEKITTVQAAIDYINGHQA
Sequence of UniProt P34808 (whole entry, unmodified, looked up): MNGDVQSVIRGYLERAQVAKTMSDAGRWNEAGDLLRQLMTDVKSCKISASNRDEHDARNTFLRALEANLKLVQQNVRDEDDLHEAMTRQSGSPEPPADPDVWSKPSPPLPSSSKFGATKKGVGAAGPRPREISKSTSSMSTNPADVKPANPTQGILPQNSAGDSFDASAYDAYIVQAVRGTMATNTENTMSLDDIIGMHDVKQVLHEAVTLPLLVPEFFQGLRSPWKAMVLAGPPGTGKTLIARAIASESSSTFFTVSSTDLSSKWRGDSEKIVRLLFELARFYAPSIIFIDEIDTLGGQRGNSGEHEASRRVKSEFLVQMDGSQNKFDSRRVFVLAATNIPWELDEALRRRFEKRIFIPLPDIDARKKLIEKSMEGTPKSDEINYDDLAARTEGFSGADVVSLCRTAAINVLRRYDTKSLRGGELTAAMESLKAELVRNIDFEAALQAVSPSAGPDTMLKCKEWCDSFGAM

Molecule | tested on | assay | test system | setting | scale | measurement | value
KNG1 two-chain HKa (Homo sapiens) | PLAUR (Homo sapiens, UniProt Q03405) | cell migration, inhibitor, Boyden chamber | DU145 | 300 nM, 6 h, together with: bFGF | relative to: untreated control, higher = stronger inhibition | inhibition of migration | 76%
YAERPSRDHLYLPLEP (NFATC3 D-site peptide (Homo sapiens)) | Mapk14 N159K/E160S/E163T, pT180, pY182 (Rattus norvegicus, UniProt P70618) | kinase activity, inhibitor, competitive kinase inhibition assay | peptide | together with: ATP 1 mM |  | IC50 | > 100000 nM
FGF8 (Homo sapiens, UniProt P55075) | FGFR3 isoform IIIc | cell proliferation, MTT | BaF3-FGFR3c | 20 nM, 48 h, together with: heparosan 4.9 µg/mL | relative to: FGF 1 with heparin, higher = more proliferation | cell proliferation | 37%
dyf-1/osm-6 (Caenorhabditis elegans) | osm-3 (Caenorhabditis elegans, UniProt P46873) | single-molecule transport |  |  |  | velocity | 1.8 µm/s
B1 (TUB1/TUB2 heterodimer D118A) | Kip3 (Saccharomyces cerevisiae, UniProt P53086) | TIRF competition |  |  | relative to: control tubulin, higher = lower affinity | relative affinity | 10 fold
SKA3 (Homo sapiens, UniProt Q8IX90) | SKA1/SKA2 (Homo sapiens) | SEC |  |  |  | molecule per partner | 1
BCR/ABL1 fusion (Homo sapiens) | Abltide-p40 fusion Abltide at N-terminus | substrate phosphorylation | K-562, lysate | competing substrates | lower = faster | time to half-maximal phosphorylation | < 2 min
B2 | microtubules tubulin polymer | TIRF motility assay |  | initial |  | gliding velocity | 3.62 µm/min
MMP2 fragment R252A (Homo sapiens) | COL1A1/COL1A2 denatured, gelatin (Homo sapiens) | DQ-gelatin fluorescence |  | 10 nM, 25 °C | higher = faster hydrolysis | hydrolysis rate | 0.269 RFU/s
B3 (TIMP3 24-144) | ADAMTS4 213-837 (Homo sapiens, UniProt O75173) | inhibitor, steady-state kinetics |  | 1 h, pH 7.5, 37 °C |  | Ki | 0.13 nM
B4 (VCL 879-1066) | RAVER1 39-321 (Homo sapiens, UniProt Q8IY67) | ITC |  | 23 °C, NaCl 150 mM |  | ΔH | -10.5 ± 0.2 kcal/mol
B5 (mel-26) | mei-1 S90A, phosphorylated by MBK-2 (Caenorhabditis elegans, UniProt P34808) | far-Western |  | 4 °C, denatured |  | binding | binds
B6 (GABBR2 42-466) | GABBR1 30-459 (Homo sapiens, UniProt Q9UBS5-2) | SEC |  |  |  | molecule per partner | 1
FGF1 (Homo sapiens, UniProt P05230) | FGFR3 isoform IIIc | cell proliferation, MTT | BaF3-FGFR3c | 20 nM, 48 h, together with: 2-O desulfated heparin 4.9 µg/mL | relative to: FGF 1 with heparin, higher = more proliferation | cell proliferation | 82%
fabF S130A (Escherichia coli) | acpP C12-acylated 1-78, C12 acyl on 4'-phosphopantetheine (Escherichia coli, UniProt P0A6A8) | holo-AcpP formation, HPLC |  | 10 µM, together with: malonyl-CoA |  | condensation rate | 1.69 min⁻¹
MENVKKATATTTWAVPTAQ (L3MBTL3 52-70 M65A (Homo sapiens, UniProt Q96JM7-2); sequence looked up) | Rbpj | ITC | peptide | pH 6.5, 25 °C, NaCl 150 mM |  | ΔH | -12.4 kcal/mol
B7 (Cdkn1b) | Ccne1 (Mus musculus, UniProt Q61457) | co-IP | NIH-3T3, not purified |  | relative to: cells in monolayer, higher = more p21 bound | p21 in cyclin E complexes | 2 fold
UGT1A9 (Homo sapiens, UniProt O60656) | O=C(c1ccc(OCCN2CCCCC2)cc1)c1c(-c2ccc(O)cc2)sc2cc(O)ccc12 | steady-state kinetics |  | pH 7.4, 37 °C |  | Vmax | 3.93e-05 µmol/min/mg
VKKATATTTWMVPTAQ (L3MBTL3 55-70 (Homo sapiens, UniProt Q96JM7-2); sequence looked up) | Rbpj | ITC | peptide | pH 6.5, 25 °C, NaCl 150 mM |  | ΔH | -8.9 kcal/mol

A few entries again:
Molecule | tested on | assay | test system | setting | scale | measurement | value
MENVKKATATTTWAVPTAQ (L3MBTL3 52-70 M65A (Homo sapiens, UniProt Q96JM7-2); sequence looked up) | Rbpj | ITC | peptide | pH 6.5, 25 °C, NaCl 150 mM |  | ΔH | -12.4 kcal/mol
B7 (Cdkn1b) | Ccne1 (Mus musculus, UniProt Q61457) | co-IP | NIH-3T3, not purified |  | relative to: cells in monolayer, higher = more p21 bound | p21 in cyclin E complexes | 2 fold
UGT1A9 (Homo sapiens, UniProt O60656) | O=C(c1ccc(OCCN2CCCCC2)cc1)c1c(-c2ccc(O)cc2)sc2cc(O)ccc12 | steady-state kinetics |  | pH 7.4, 37 °C |  | Vmax | 3.93e-05 µmol/min/mg
